Results gathered from unrelated publications.
Parts stem from different laboratories: compare values within a part only.
Sequence of UniProt P35626 (whole entry, looked up): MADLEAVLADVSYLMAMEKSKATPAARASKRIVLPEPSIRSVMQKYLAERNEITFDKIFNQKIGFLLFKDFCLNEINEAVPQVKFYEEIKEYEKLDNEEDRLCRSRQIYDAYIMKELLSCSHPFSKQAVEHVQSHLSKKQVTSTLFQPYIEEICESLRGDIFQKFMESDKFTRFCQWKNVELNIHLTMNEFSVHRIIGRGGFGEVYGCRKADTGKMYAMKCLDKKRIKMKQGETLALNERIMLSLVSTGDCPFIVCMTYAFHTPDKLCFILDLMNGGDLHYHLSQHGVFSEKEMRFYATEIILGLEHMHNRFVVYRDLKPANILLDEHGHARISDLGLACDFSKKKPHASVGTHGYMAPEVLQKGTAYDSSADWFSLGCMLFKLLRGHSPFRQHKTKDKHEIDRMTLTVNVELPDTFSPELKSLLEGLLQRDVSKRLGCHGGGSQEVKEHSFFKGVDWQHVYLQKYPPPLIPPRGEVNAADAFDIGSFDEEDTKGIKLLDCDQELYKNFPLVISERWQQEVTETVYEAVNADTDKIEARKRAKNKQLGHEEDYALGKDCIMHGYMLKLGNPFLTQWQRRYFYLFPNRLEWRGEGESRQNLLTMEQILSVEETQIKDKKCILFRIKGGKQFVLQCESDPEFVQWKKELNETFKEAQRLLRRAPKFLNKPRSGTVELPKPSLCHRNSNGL
Sequence of UniProt O43283 (whole entry, looked up): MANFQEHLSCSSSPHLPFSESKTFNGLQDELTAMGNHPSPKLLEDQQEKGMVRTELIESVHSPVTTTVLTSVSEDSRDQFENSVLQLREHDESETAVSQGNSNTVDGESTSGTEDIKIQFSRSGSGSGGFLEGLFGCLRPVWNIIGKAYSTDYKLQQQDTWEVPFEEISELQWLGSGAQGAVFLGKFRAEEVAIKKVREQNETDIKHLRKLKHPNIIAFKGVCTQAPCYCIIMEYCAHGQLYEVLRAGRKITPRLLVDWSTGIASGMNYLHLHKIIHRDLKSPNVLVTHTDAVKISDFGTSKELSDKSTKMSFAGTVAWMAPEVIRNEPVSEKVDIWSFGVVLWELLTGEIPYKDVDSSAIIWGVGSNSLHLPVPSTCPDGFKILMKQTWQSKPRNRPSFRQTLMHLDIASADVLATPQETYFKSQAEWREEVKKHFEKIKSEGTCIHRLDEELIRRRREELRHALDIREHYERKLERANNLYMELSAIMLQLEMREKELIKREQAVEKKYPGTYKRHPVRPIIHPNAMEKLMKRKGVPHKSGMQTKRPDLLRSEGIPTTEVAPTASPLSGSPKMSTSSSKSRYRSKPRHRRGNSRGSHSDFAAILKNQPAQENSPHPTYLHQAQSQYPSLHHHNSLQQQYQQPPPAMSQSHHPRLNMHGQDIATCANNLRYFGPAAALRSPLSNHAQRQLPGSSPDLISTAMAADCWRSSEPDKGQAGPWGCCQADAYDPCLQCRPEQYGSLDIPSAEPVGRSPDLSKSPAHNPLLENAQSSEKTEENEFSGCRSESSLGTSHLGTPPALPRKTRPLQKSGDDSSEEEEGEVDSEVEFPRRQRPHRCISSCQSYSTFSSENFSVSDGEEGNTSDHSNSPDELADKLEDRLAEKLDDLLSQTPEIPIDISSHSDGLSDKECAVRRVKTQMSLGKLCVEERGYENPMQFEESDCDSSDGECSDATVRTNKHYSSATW
Sequence of UniProt O43194 (whole entry, looked up): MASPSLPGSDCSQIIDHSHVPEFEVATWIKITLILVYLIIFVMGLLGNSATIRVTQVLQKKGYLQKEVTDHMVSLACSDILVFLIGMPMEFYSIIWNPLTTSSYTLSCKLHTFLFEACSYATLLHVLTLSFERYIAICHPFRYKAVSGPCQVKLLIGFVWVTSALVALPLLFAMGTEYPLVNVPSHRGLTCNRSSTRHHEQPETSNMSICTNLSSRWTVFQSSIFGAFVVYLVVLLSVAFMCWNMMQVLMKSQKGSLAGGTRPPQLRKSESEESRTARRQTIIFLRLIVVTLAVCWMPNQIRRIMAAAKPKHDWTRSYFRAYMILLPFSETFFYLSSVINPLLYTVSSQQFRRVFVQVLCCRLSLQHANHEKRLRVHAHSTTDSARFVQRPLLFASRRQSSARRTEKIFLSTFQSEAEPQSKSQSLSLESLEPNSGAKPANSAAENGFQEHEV
Sequence of UniProt O15530 (whole entry, looked up): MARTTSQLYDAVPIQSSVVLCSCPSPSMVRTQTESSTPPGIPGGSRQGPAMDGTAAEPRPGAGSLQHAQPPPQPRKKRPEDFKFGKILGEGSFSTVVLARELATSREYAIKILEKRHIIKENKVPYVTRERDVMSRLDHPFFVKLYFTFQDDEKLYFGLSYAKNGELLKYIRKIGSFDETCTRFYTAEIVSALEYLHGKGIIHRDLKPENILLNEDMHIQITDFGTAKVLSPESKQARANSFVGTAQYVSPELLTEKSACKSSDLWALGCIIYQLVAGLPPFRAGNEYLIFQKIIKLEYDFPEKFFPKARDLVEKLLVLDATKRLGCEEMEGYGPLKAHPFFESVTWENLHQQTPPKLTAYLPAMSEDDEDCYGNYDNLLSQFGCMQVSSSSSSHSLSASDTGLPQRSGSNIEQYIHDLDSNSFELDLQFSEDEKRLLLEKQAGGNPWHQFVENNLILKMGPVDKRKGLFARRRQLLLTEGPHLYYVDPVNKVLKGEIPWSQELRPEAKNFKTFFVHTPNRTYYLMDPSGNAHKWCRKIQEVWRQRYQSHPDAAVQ
Sequence of UniProt Q7Z7M1 (whole entry, looked up): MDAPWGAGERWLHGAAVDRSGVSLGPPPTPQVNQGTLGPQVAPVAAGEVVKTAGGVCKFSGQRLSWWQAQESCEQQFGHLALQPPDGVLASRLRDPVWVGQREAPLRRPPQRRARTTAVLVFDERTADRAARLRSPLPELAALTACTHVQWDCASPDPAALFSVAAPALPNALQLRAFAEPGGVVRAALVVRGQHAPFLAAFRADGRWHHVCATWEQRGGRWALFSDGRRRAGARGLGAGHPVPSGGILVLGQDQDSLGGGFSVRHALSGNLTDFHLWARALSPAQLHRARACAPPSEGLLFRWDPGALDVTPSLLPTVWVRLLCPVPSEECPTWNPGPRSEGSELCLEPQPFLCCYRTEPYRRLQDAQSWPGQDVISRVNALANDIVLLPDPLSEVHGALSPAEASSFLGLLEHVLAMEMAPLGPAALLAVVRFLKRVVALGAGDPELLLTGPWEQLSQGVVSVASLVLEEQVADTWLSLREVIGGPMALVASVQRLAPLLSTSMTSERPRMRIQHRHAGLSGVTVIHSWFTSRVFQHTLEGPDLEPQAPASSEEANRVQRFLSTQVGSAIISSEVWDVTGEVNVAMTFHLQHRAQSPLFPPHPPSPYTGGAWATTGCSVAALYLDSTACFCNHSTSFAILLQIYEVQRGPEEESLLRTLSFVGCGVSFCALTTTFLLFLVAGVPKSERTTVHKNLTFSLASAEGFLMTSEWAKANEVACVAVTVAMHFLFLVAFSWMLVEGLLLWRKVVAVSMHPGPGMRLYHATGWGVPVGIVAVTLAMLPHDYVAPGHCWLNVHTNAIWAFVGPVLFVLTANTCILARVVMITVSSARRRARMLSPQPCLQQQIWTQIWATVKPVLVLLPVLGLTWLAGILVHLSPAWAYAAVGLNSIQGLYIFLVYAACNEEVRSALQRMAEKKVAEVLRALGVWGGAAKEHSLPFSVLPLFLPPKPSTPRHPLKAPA
Sequence of UniProt P51685 (whole entry, looked up): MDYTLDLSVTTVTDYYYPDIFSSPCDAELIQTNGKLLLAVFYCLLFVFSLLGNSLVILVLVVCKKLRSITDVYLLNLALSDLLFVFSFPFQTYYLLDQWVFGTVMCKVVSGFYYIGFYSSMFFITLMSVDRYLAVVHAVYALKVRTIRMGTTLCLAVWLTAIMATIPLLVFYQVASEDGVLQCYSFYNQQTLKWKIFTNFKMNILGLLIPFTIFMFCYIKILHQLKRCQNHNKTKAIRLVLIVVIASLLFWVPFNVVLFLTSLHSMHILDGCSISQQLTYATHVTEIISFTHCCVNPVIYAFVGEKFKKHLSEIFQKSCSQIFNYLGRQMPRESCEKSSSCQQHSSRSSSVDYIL
Sequence of UniProt O95747 (whole entry, looked up): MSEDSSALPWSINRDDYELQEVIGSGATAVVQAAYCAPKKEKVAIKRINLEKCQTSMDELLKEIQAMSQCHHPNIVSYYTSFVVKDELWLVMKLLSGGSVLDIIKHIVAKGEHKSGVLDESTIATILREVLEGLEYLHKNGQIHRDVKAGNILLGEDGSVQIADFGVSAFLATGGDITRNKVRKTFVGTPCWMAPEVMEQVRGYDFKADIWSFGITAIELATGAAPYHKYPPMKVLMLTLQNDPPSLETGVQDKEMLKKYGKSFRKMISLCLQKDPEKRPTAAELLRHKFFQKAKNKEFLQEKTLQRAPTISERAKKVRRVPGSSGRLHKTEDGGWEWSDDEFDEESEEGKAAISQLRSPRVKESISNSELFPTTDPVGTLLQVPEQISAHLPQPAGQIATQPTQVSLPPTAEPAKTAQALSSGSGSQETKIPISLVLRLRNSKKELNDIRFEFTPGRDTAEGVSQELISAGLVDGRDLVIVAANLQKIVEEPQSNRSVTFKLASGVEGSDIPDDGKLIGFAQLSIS
Sequence of UniProt O75388 (whole entry, looked up): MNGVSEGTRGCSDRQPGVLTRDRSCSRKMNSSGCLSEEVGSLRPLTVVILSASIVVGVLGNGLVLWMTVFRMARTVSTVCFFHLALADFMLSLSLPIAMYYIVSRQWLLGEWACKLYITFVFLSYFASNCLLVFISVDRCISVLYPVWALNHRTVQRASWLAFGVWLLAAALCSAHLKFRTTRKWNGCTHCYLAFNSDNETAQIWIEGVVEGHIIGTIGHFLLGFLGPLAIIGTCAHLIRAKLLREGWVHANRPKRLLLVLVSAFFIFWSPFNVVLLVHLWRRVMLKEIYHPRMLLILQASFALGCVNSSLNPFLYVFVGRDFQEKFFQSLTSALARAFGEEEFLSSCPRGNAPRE

Sample 1
Compound: CCN(c1nc(N)c(C(=O)N=C(N)N)nc1Cl)C(C)C
Observed: β-arrestin recruitment
Mode: agonist
Technique: PRESTO-Tango
Concentration: 10 µM
Baseline: untreated
target	fold over basal
GPR39 (Homo sapiens, UniProt O43194)	0.89
ADRA1B (Homo sapiens, UniProt P35368)	1.11
Adhesion G protein-coupled receptor D2 (ADGRD2, Homo sapiens, UniProt Q7Z7M1)	0.71
ADRA2C (Homo sapiens, UniProt P18825)	2.83
CCR8 (Homo sapiens, UniProt P51685)	0.93
Metabotropic glycine receptor (GPR158, Homo sapiens, UniProt Q5T848)	0.82
NPBWR2 (Homo sapiens, UniProt P48146)	1.12
Probable G-protein coupled receptor 148 (GPR148, Homo sapiens, UniProt Q8TDV2)	1.19
GPR32 (Homo sapiens, UniProt O75388)	1.27
Putative adhesion G protein-coupled receptor F2P (ADGRF2P, Homo sapiens, UniProt Q8IZF7)	0.71
FFAR4 (Homo sapiens, UniProt Q5NUL3)	1.19
CASR (Homo sapiens, UniProt P41180)	0.79
MC4R (Homo sapiens, UniProt P32245)	1.18

Sample 2
Structure (SMILES): COc1cc(-c2cn(C3CCc4ccccc4N(CC(F)(F)F)C3=O)nn2)ccc1-n1ccc(C)n1 (stereo not shown)
Observed: cell-free assay
Technique: competition with immobilised ligand
Concentration: 1 µM
target	remaining binding [%]
Ribosomal protein S6 kinase alpha-1, N-terminal kinase domain (RPS6KA1, Homo sapiens, UniProt Q15418)	82
AKT3 (Homo sapiens, UniProt Q9Y243)	89
Tyrosine-protein kinase ABL1, phosphorylated (ABL1, Homo sapiens, UniProt P00519, F317L)	57
TAOK2 (Homo sapiens, UniProt Q9UL54)	100
GRK3 (Homo sapiens, UniProt P35626)	100
PRKD1 (Homo sapiens, UniProt Q15139)	100
RIOK2 (Homo sapiens, UniProt Q9BVS4)	96
CAMKK1 (Homo sapiens, UniProt Q8N5S9)	100
FGFR3 (Homo sapiens, UniProt P22607, G697C)	90
MAP3K13 (Homo sapiens, UniProt O43283)	84
IRAK1 (Homo sapiens, UniProt P51617)	100
EPHB4 (Homo sapiens, UniProt P54760)	92
PDPK1 (Homo sapiens, UniProt O15530)	100
EPHA6 (Homo sapiens, UniProt Q9UF33)	98
EGFR (Homo sapiens, UniProt P00533)	100
Non-receptor tyrosine-protein kinase TYK2, JH2 (TYK2, Homo sapiens, UniProt P29597)	100
COQ8B (Homo sapiens, UniProt Q96D53)	100
PRKCH (Homo sapiens, UniProt P24723)	73
PHKG1 (Homo sapiens, UniProt Q16816)	80

Sample 3
Target: WD repeat-containing protein 5 (WDR5, Homo sapiens, UniProt P61964)
Technique: SPR
Structure (SMILES)	dissociation rate constant [s⁻¹]
C[C@@H]1CN(c2ccc(-c3cc(C(=O)NCCOCCOCCOCCOCCOCCOCCNC(=O)/C=C/c4[nH]cc(C(=O)N[C@@H](CC(N)=O)c5ccc(F)c(Cl)c5)c4-c4ccc(Cl)cc4F)ccc3F)cc2NC(=O)c2ccc(F)cc2C(F)(F)F)C[C@H](C)N1C	0.0045
C[C@@H]1CN(c2ccc(-c3cc(C(=O)NCCCNC(=O)/C=C/c4[nH]cc(C(=O)N[C@@H](CC(N)=O)c5ccc(F)c(Cl)c5)c4-c4ccc(Cl)cc4F)ccc3F)cc2NC(=O)c2c[nH]c(=O)cc2C(F)(F)F)C[C@H](C)N1C	0.0016
C[C@@H]1CN(c2ccc(-c3cc(C(=O)NCCOCCOCCOCCOCCNC(=O)Cn4cc(-c5[nH]cc(C(=O)N[C@@H](CC(N)=O)c6ccc(F)c(Cl)c6)c5-c5ccc(Cl)cc5F)cn4)ccc3F)cc2NC(=O)c2c[nH]c(=O)cc2C(F)(F)F)C[C@H](C)N1C	0.0018

Sample 4
SMILES: Nc1nccc(-c2c(-c3ccc(F)cc3)ncn2C2CCNCC2)n1
Observed: enzyme activity
Mode: inhibitor
Concentration: 0.5 µM
Baseline: control
target	remaining activity [%]
CHEK2 (Homo sapiens, UniProt O96017)	101
OXSR1 (Homo sapiens, UniProt O95747)	101
GRK3 (Homo sapiens, UniProt P35626)	97.6
CAMKK2 (Homo sapiens, UniProt Q96RR4)	110
Tyrosine-protein kinase Lyn, isoform B (LYN, Homo sapiens, UniProt P07948)	97.5
DAPK1 (Homo sapiens, UniProt P53355)	88.2
Cyclin-dependent kinase 5, with p25 (CDK5, Homo sapiens, UniProt Q00535)	95.4
Cyclin-dependent kinase 4, with cyclin D1 (CDK4, Homo sapiens, UniProt P11802)	99.9

Some of these lines once more (sample 2):
target	remaining binding [%]
COQ8B (Homo sapiens, UniProt Q96D53)	100
RIOK2 (Homo sapiens, UniProt Q9BVS4)	96
Ribosomal protein S6 kinase alpha-1, N-terminal kinase domain (RPS6KA1, Homo sapiens, UniProt Q15418)	82
PRKD1 (Homo sapiens, UniProt Q15139)	100
EGFR (Homo sapiens, UniProt P00533)	100
CAMKK1 (Homo sapiens, UniProt Q8N5S9)	100
IRAK1 (Homo sapiens, UniProt P51617)	100
